Measurements pooled from the literature.
Each numbered part is a random draw from the data of one study; scales do not carry over between parts.
UniProt Q8IVH8, sequence (whole entry, looked up): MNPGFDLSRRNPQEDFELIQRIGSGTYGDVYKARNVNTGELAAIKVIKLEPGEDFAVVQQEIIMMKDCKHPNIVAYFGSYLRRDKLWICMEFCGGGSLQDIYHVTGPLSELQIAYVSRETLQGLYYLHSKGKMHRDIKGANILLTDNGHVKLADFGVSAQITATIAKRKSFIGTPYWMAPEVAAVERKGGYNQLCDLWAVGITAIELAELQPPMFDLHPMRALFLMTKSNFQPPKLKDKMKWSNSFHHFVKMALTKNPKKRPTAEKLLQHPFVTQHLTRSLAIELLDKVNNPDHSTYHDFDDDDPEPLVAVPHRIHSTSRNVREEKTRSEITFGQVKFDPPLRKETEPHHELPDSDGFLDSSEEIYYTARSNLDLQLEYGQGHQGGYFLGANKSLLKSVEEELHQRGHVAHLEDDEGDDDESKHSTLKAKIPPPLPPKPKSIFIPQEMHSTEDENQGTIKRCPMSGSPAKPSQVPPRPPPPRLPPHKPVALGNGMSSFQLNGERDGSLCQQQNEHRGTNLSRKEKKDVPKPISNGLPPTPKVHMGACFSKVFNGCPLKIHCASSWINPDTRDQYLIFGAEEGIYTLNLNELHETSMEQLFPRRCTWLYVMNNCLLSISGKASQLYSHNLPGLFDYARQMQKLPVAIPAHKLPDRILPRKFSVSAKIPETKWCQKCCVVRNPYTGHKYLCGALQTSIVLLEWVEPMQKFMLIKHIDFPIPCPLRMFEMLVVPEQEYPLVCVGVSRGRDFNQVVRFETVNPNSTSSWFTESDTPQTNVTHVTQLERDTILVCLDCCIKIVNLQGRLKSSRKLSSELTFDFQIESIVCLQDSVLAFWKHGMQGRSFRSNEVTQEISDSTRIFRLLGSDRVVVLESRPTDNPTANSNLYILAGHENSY

Set 1
Target: Ras GTPase-activating protein-binding protein 1, full length (G3BP1, Homo sapiens, UniProt Q13283)
UniProt Q13283, sequence (whole entry, looked up): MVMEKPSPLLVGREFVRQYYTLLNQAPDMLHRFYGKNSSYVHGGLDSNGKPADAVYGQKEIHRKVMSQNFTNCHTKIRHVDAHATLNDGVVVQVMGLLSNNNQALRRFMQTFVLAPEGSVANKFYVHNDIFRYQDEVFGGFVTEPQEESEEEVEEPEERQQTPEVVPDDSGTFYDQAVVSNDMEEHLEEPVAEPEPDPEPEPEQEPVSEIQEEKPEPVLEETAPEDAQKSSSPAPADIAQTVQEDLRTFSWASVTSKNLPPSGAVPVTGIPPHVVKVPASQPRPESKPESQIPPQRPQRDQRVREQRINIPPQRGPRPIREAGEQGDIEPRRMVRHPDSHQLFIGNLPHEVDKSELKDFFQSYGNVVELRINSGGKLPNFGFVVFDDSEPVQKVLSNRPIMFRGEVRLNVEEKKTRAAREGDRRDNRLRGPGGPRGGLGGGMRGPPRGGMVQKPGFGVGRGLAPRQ
Method: RNA Bind-n-Seq
Form: RNA
Medium: in vitro
Concentration: 200 nM
Notes: whole 134-nt RNA, ends assumed
With: 150 mM KCl
Reference: input library
Reading: higher = stronger binding
Measurement: log2 enrichment
Constant ends, left off below: GGGAGUUCUACAGUCCGACGAUC … UGGAAUUCUCGGGUGUCAAGG
CCUGUGCUACACAUCGUAUGUACCGAAUCGGAAAAAAAGGGGAAAAAAAGGAAAAAAAGGAAAGUAUUAUGUUACGCCGUUCGGAUCUGC: -0.772
UCAAGUCCUGUGCUACACAUCGUAUGUACCGAAUCGGAAAAAGGAGGAAAAAGGAAAGUAUUAUGUUACGCCGUUCGGAUCUGCACUUCC: -0.887
CACAGACAACACGCACCCACACAGACACAGAGGGAAGGGGUUGGGAUGGGGACAGGGUGCACAGUAGGGCGGGGUAGGACCCCAGCCCCU: 1.76
UCCUGUGCUACACAUCGUAUGUACCGAAUCGGGGUUUUUGGGGAGGGGAAAAAAAGGGGAAAGUAUUAUGUUACGCCGUUCGGAUCUGCA: 0.429
ACCAUGCAGGUGGGCAUCUUUGGGAAGUGGGGCAAGGGGGGGAUAGGGAGGGGGGUAUCACUUUGGGAACAGGUGGUCCCAGGUCGUUUC: 1.49
CAAGUCCUGUGCUACACAUCGUAUGUACCGAAUCGGGUGGGUGGGUUUUUUUGGGAAAGUAUUAUGUUACGCCGUUCGGAUCUGCACUUC: 0.483
UUCCUCAAGUCCUGUGCUACACAUCGUAUGUACCGAAUCGGAGGAGGUGGAAAGUAUUAUGUUACGCCGUUCGGAUCUGCACUUCCAGCA: -0.914
CAAGUCCUGUGCUACACAUCGUAUGUACCGAAUCGGGGAGGGGAGGGGAAAGGGGAAAGUAUUAUGUUACGCCGUUCGGAUCUGCACUUC: 1.4

Set 2
Target: TAR DNA-binding protein 43, full length, His tag (TARDBP, Homo sapiens, UniProt Q13148, residues 1-414)
Method: RNA Bind-n-Seq
Form: RNA
Medium: in vitro
Concentration: 20 nM
Notes: 6-mer, flanks averaged, single round
With: 150 mM KCl
Reference: input library
Reading: higher = stronger binding
Measurement: 6-mer enrichment (R)
GGCCGA: 1.62
CUAUUC: 0.547
CUCGAG: 0.845
AGACAA: 0.687
AAUCGU: 0.612
UGUAGG: 1.46
CCUCUU: 0.601
UCGCCG: 0.789

Set 3
Target: Protein C-ets-1 (ETS1, Homo sapiens, UniProt P14921, residues 1-441, Y397A, full length assumed)
Method: protein-binding microarray
Form: double-stranded DNA, one strand shown
Medium: in vitro
Concentration: not given
Notes: k-mer, scored over probes, only values ≥0.25
Reading: higher = stronger binding
Measurement: E-score
Construct (chain): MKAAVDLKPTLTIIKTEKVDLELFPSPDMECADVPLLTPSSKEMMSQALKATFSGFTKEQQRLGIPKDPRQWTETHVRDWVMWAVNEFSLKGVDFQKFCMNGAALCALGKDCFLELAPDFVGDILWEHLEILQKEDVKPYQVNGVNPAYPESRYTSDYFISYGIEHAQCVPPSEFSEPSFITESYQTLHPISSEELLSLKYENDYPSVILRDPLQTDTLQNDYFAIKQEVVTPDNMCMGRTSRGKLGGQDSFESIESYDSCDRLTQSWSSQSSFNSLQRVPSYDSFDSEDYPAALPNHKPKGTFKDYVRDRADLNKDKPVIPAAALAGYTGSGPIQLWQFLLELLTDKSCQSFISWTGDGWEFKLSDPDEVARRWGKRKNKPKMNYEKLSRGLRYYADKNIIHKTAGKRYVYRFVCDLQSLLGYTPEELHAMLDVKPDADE
GACTGCCA: 0.312
ATTGACAA: 0.301
GGCGCAAA: 0.282
CGGAAGCA: 0.407
GGCAAAAC: 0.317
CAACGTTG: 0.278
AAATTGTC: 0.33
ACCCTCCC: 0.269

Further values, each from its own experiment
O=C(NS(=O)(=O)c1ccc(NCC2CCOCC2)c([N+](=O)[O-])c1)c1ccc(N2CCN(Cc3ccc(C(F)(F)F)cc3-c3ccc(Cl)cc3)CC2)cc1Oc1cnc2[nH]ccc2c1  remaining binding (Mitogen-activated protein kinase kinase kinase kinase 3 (MAP4K3, Homo sapiens, UniProt Q8IVH8); cell-free assay, competition with immobilised ligand; 1 µM): 92%
